Assay results collected from several papers.
A part holds a random share of what one study measured.

Series 1
Target: RING finger protein unkempt homolog, zinc fingers 1-6, GST-SBP tag (UNK, Homo sapiens, UniProt Q9C0B0, residues 30-357)
Technique: RNA Bind-n-Seq
Form: RNA
Sample: in vitro
Tested at: not given
Setting: RNA with constant flanks, ends assumed
Baseline: input RNA pool
Reading: higher = stronger binding
All sequences stand within: GGGAGUUCUACAGUCCGACGAUC … CAACAGAGGAUUGAGCAUCA
Residues (chain): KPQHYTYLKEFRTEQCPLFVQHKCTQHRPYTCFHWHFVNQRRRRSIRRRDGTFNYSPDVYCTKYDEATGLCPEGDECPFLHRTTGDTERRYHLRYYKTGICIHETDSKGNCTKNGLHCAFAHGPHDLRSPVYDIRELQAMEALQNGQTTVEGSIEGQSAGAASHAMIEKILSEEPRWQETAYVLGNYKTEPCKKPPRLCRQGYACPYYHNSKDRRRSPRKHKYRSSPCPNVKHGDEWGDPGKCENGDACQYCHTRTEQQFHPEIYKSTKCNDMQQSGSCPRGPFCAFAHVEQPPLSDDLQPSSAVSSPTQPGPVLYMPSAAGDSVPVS
Oligonucleotide	bound/input enrichment [ratio]
UUGUUUUGCUCAUUUGAAGUCAUUUGCCAUUUUUUUGGCCUUUUGUGGAACUCUGCUGCUUUCCGAAGAAUUAUGAAAAAUAAUUGCCAUCAACAAUAUUUUGAGGCAGUAAAACCCCUU	0.203
UAUGAAGUAUUUCAGACCCAGUAGUAGAACAUCACUCUGCCACUCACUCCUUUAUCUCCUACCCGUUAUUUAAAUUGGACUUUUAAUAUCCUACCAGCUGCUCUUCAGACACACAUGGUG	1.01
CCCACUGCUAUUCAAGCUCAGGGCUGGCCAGUUGCUCUCAGUGGAUUGGAUAUGGUUGGAGCCGCUCAGACUGGAUCUGGGAAAACAUUAUCUUAUUUGCUGCCUGCCAUUGUACACAUA	0.338
CACAGAUCCUCCCUGUCAUGCCACAUUUCACUGAUUGGAAUGUGGAAAUGGAAAAGGAAUUCCGGAUGUGCAUUUUCACCUGAGGUUUCCCUGCAUCCCUGCAGUGCCAAAGCCCCACCU	0.108
GGAAGGCGCUGUUUGAAGCUUGUGGCUCUUUGAAGUCUGAAAGACAUCGGCAGAGGACCCUUCCGACGGCACAACUGUUACUCUAGGGAGUUGAUUUUUUUUUCUUAAGAGAUUUAAAAA	0.0883
CUGGAAGGUUGUUGGCGCACGCGAUUGAAGCGGCGCACUCGGAGUAAACGCGGCUGGCGGCCGUACGUGUGUCUUUUUGCUGAGGGCAGUUAUGUUUCUCCAAUAUUACCUCAACGAGCA	0.246
GAAGACCUGAAAAAGCUGCAUGAUGAAAAAAUCGAGUCAUUGAGAGCUGAAUUUCAGUGCUCCGAACAAAAUCACCUGAAGGAAUUAGAGGACACACUGCACAUCAGGCACACACAGGAG	0.591
UACCAGUCAUAUAAUCAGUAUCCUAAUGGGUCAGCCAAUGGCUUUGGUGCAGUUAGAAACUUCCGCCCCACUGACUAUUAUCAUUCAGAAAUUCCAAACACAAGACCACAUGAAAUUCUG	0.29
GGAUUCAGGAACAUCAUCGCAGAUCCUGUCACCUUCAAGACCAAAUCGAGCUAUGUUGCCUCCGCUACAUUGCAAGCCUACACCUCUAUGCAUCUAUUUUUCCAAUUCAAGACAACAUCU	0.429
ACCCAGGCUGACGAGGACCCUCAGAUGUCCAUGGUUGAAGACUGUCAUGCGUCAGAACAUAACCGCCCUAUCUCCUCCGUUCAGUCUCACCCCAGCCAGUCAGUCCGUUCGGUCAGCAGU	0.0739
UGUAGUUUCUUGAUUUAUCAUUUUUCUCUUUUCUUUCUUUCCUUUAGGAAAAGCCUAAAGAUCCGGUUGUAAGAAAAACAGAAGCCAUGUUUCGAAGACCUGUGUUACAGGUAUUUCGUC	0.159

Series 2
Target: Prothrombin, mature alpha-thrombin (F2, Homo sapiens, UniProt P00734)
Technique: aptamer microarray, sandwich
Form: DNA with 2'F-ANA
Sample: in vitro
Tested at: 200 nM
Setting: whole 15-mer aptamer, many near background
With: Cy3 exosite-II aptamer, 400 nM
Reading: higher = stronger binding
Oligonucleotide: GGTTGGTGTGGTTGG
Modification	mean fluorescence intensity
2'F-ANA at 2 8 15	519 a.u.
2'F-ANA at 1 4 6 7 9 10 11 15	52.7 a.u.
2'F-ANA at 1 2 4 7 8 10 13 14 15	77.8 a.u.
2'F-ANA at 1 2 4 11	98.6 a.u.
2'F-ANA at 2 3 4 6 7 8 11 14 15	259 a.u.
2'F-ANA at 1 3 4 6 8 10 11 12 14	59.9 a.u.
2'F-ANA at 2 4 5 9 10 11 14	45 a.u.
2'F-ANA at 1 2 6 7 11 12	257 a.u.
2'F-ANA at 1 7 8 9 10 14	44.7 a.u.
2'F-ANA at 3 7 8 10 13 14	454 a.u.
2'F-ANA at 1 2 5 8 10 13 14 15	45.9 a.u.
2'F-ANA at 2 3 6 12	1120 a.u.
2'F-ANA at 4 5 6 7 8 9 10 11 13 15	62.9 a.u.
2'F-ANA at 2 6 7 12	719 a.u.
2'F-ANA at 2 3 6 7 9 10 11 12 14	240 a.u.
2'F-ANA at 3 4 5 7 11 12 13 15	115 a.u.
2'F-ANA at 1 4 5 10 11 15	46.8 a.u.
2'F-ANA at 1 2 4 5 8 10 11 12 13 14 15	49 a.u.
2'F-ANA at 1 2 4 7 9 11 14 15	50.3 a.u.
2'F-ANA at 2 3 4 7 10 12 13 14	194 a.u.
2'F-ANA at 1 2 6 8 10 13 14	47.3 a.u.
2'F-ANA at 3 5 7 8 9 10 11	57.7 a.u.

Series 3
Target: Protein C-ets-1 (ETS1, Homo sapiens, UniProt P14921, residues 1-441, K379A, full length assumed)
Technique: protein-binding microarray
Form: double-stranded DNA, one strand shown
Sample: in vitro
Tested at: not given
Setting: k-mer, scored over probes, only values ≥0.25
Reading: higher = stronger binding
Target sequence (chain): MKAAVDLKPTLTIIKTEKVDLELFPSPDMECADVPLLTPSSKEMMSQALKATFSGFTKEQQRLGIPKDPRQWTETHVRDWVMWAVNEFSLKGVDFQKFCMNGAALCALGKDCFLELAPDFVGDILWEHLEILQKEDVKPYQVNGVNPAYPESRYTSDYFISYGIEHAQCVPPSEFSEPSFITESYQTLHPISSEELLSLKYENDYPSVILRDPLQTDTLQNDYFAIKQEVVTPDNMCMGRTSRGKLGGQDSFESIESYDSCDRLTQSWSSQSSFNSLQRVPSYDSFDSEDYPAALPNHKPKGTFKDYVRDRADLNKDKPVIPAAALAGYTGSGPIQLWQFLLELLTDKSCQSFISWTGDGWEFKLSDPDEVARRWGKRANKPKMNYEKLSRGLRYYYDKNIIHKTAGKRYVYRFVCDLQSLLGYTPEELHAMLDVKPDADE
Oligonucleotide	E-score
ATACCGTG	0.272
TCAACACA	0.287
AGACGTCC	0.258
GTGACAAC	0.264
ACGCAATC	0.258
ATTGCGTC	0.267
ACCGACAC	0.392
CCTTACCG	0.289
TTATACAA	0.261
CGCCAAAA	0.256
GACACACA	0.258
AGTAGACG	0.286
CGTACATA	0.272
ATAACGGA	0.263
ACCGGAAC	0.477
AACCGGGA	0.449
CCGGTAGC	0.391
CGACACAA	0.27
ATTACGTA	0.257
CGCCCCTC	0.277

Series 4
Target: RNA binding protein fox-1 homolog 2, RRM domain, GST-SBP tag (RBFOX2, Homo sapiens, UniProt O43251-10, residues 100-194)
Technique: RNA Bind-n-Seq
Form: RNA
Sample: in vitro
Tested at: 365 nM
Setting: natural RNA segment, single round, ends assumed
Baseline: no-protein control
Reading: higher = stronger binding
All sequences stand within: GGGAGUUCUACAGUCCGACGAUC … UGGAAUUCUCGGGUGCCAA
Residues (chain): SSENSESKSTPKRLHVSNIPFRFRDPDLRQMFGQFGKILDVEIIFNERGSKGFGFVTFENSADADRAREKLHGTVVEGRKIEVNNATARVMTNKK
Oligonucleotide	RBNS enrichment (R)
AUUUUAUUUGUUUAAUGAUAUGCAUGCUUUUCUUCUGUAAAUAUAUAAUAAAUUUUUGUAGAUAGUCUUGAUGUGUGAUCUUUAUUUUGUAUUUCUCUGUGUAAAACCAG	31.7
UUACAAUACCAAAAUCCACAAAAGCUACUUUAUUUUCAAAUAUGACAGAUAGUUUCCAGAGUACGCCAUGUAUAGCAAAGAACCCUGCCAUAGUUUUGACUCAGCCCCAU	0.963
ACCAGCUUCUGGGGCUCACUGCAGUCUUCCCUGGGUCUUCCCUUCAAAUGCCCAUGGCGUUUAUCCUUCUCCCUCUCUAGAAAUGUACUCGACUGUUAUAACGAGGGAGU	0.296
UUUGUUCAACACAAACUACCAUCACACCUCUGACUUGAUAUUAUCAUGAGAAUGUGGAUGUACAAGUGUAAAAACAGGAAUGUACUAUCUCUCCUGAGCAGAUUGCCUGA	0.4
GUGUUCAUGAUAGUGUAUAUUUUACUACUUUUUGAAUGUUAAUUUUAAAAUAGAAGAUGUCCCACUUGCCAUUAAAUAUAGAAGCCAACUUUUUACCUUUUGAAAUAUGG	0.488
UAGAUGGAAACAGAGACAUUGAGCCCUCUCUCUUGAUCGUAAACCACUCCAGAACGGCCACGGGUUUCCCAGAGUUCUAUGGUCUUCCCAAGAGAAUUUUUAAUUGUAAA	0.387
AUUGUUAAGGUGGACUUCAUGGCCACUGGAAGGUCUGUUUUGGUGUUACCUGAGUGUGACACAGGCCCUGGGGUGUGCGUGUUUCUCUAACUGUCUACACGUGCACAUAG	0.343
GUCUGUCAUUAAUAAUAAUUAACCCCCCUCCCCUCAUGGAACACUCCCGUUUGUACCUCAACAGAUGCAAAUUCCCCUCUCGUUCACCCUACGCCCUUUUUGGUACACUU	1.05
AAGAAUCUAGGGAGUGGCCAAACUAAAUAUAAUUUCUUUAAAAAAGAAAGAAAAAGGAAAAAUCCAAAAUAUCUCAGUAUCAUCUGUCUGAAGCAUUGUGUGUUCUCAUU	0.505
GCAUUUGCGGUUAGAAUGGUCUUGUUGCCUAAACUGUCUAAAAUUCUAAUAAAAUAACUUUCUAAGAGUCAUUGGAGUGGGCCUUUUAAAAUCUCCAUUUUGAGUUUGAU	0.437
AGGACAGAGCUAUUUUGCUAUGAUAAUCUCUGUGGUUUAUGAUAAUAAUCUGAACAGCAAACAGUGCCAUUAAGUGCACAGAUGUUAAUGCAACUAAUGGUUGUGCCAGC	0.477
AUCUUGCUUCAUGAGAUUGUACCUCUUAAGUGGCUGCGGACCUGGCUAAACUGUGGGUGGCAGUGGGCAUCCCCAUCACCCUUAGCAAGGUGUGGUUCUCAGUGCCUGUC	0.257
